Values quoted from earlier work as cited in several papers.
Numbered parts are unrelated; values within a part may stem from several laboratories. ± gives the spread as reported.

Series 1
Organism: Cryptosporidium parvum
Method: high-throughput screen
Tested at: concentration not given
Measurement: activity
CCC1=C(C)CN(C(=O)NCCc2ccc(S(=O)(=O)NC(=O)N[C@H]3CC[C@H](C)CC3)cc2)C1=O: inactive
NS(=O)(=O)c1cc2c(cc1Cl)NCNS2(=O)=O: inactive
CCCCC(=O)O[C@H]1CC[C@H]2[C@@H]3CCc4cc(O)ccc4[C@H]3CC[C@]12C: inactive
Cc1sc(N)c(C(=O)c2cccc(C(F)(F)F)c2)c1C: inactive
CCCN[C@H]1CCc2nc(N)sc2C1.Cl: inactive
NCc1ccc(S(N)(=O)=O)cc1: inactive
CN(C)[C@@H]1C(O)=C(C(N)=O)C(=O)[C@@]2(O)C(O)=C3C(=O)c4c(O)ccc(Cl)c4[C@@H](O)[C@H]3C[C@@H]12: inactive
CC(=O)NS(=O)(=O)c1ccc(N)cc1: inactive
CC(=O)/N=c1/sc(S(N)(=O)=O)nn1C: inactive
CNC(=C[N+](=O)[O-])NCCSCc1csc(CN(C)C)n1: inactive
CS(=O)(=O)c1ccc(-c2cc(Br)sc2-c2ccc(F)cc2)cc1: inactive
C=C1/C(=C\C=C2/CCC[C@]3(C)[C@@H]([C@H](C)CCCC(C)(C)O)CC[C@@H]23)C[C@@H](O)C[C@@H]1O: inactive
CC1(C)S[C@@H]2[C@H](NC(=O)[C@H](N)c3ccc(O)cc3)C(=O)N2[C@H]1C(=O)O: inactive
Cc1nc2ccc(CN(C)c3ccc(C(=O)N[C@@H](CCC(=O)O)C(=O)O)s3)cc2c(=O)[nH]1: inactive
CN(CCOc1ccc(CC2SC(=O)NC2=O)cc1)c1ccccn1.Cl (centres unmarked): inactive
Cc1ccc(Cl)c(Nc2ccccc2C(=O)O)c1Cl: inactive
Cc1ccc(-c2cc(C(F)(F)F)nn2-c2ccc(S(N)(=O)=O)cc2)cc1: inactive
Clc1ccccc1C(c1ccccc1)(c1ccccc1)n1ccnc1: inactive
CCC[C@@H]1C[C@@H](C(=O)N[C@@H]([C@H]2O[C@H](SC)[C@H](O)[C@@H](O)[C@H]2O)[C@@H](C)O)N(C)C1: inactive
CCN(CC)CC(=O)Nc1c(C)cccc1C: inactive
CO[C@H]1/C=C/O[C@@]2(C)Oc3c(C)c(O)c4c(O)c(c(/C=N/N5CCN(C)CC5)c(O)c4c3C2=O)NC(=O)/C(C)=C\C=C\[C@H](C)[C@H](O)[C@@H](C)[C@@H](O)[C@@H](C)[C@H](OC(C)=O)[C@@H]1C: inactive
COc1c2occc2cc2ccc(=O)oc12: inactive
COc1ccnc(C[S+]([O-])c2nc3ccc(OC(F)F)cc3[nH]2)c1OC (centres unmarked): inactive
Cc1ccc(C)c(OCCCC(C)(C)C(=O)O)c1: inactive
CS(=O)(=O)O.O=C(O[C@H]1C[C@H]2CC3C[C@@H](C1)N2CC3=O)c1c[nH]c2ccccc12: inactive

Single results of other studies
CCc1c(N(CC)C2CCOCC2)cc2oc(CN3CCCCC3)cc2c1C(=O)NCc1c(C)cc(C)[nH]c1=O  decreased platelet count incidence (patients; dose not given): 39%
CC(C)CCC[C@@H](C)[C@H]1CC[C@H]2[C@@H]3CC=C4[C@@H](O)[C@@H](O)CC[C@]4(C)[C@H]3CC[C@]12C  plasma half-life (human): 17 days
O=C(O)CN1CCN(CC(=O)O)CCN(Cc2cccc(C(=O)O)n2)CC1  log Ka (free ligand; second carboxylate protonation): 2.95
CC(C)(O)c1cncc(-c2nc3ccc(F)cc3n2C2CC2)c1  IC50 (HTR2B; radioligand binding): 5.33 µM
COc1ccc([C@@H]2Sc3ccccc3N(CCN(C)C)C(=O)[C@@H]2OC(C)=O)cc1  log kW IAM (IAM chromatography): 2.83
CC(=O)N1CCN(c2ccc(OCC3COC(Cn4ccnc4)(c4ccc(Cl)cc4Cl)O3)cc2)CC1 (centres unmarked)  elimination half-life (item: lenvatinib; co-administration with compound): no effect
Cc1c(C#N)cccc1[C@@H](C)Nc1nnc(C)c2cnc(N3CCOCC3)cc12  IC50 (HT115; ERK phosphorylation, In-Cell Western, item: phospho-ERK): 0.01 ± 0.0028 µM
CC(C)(Oc1ccc(Cl)cc1)C(=O)O  log Kow: 2.57
NC(=O)CC[C@@H]1NC(=O)[C@H](Cc2ccccc2)NC(=O)[C@H](Cc2ccc(O)cc2)NC(=O)CCSSC[C@@H](C(=O)N2CCC[C@H]2C(=O)N[C@H](CCCN=C(N)N)C(=O)NCC(N)=O)NC(=O)[C@H](CC(N)=O)NC1=O  clearance (human, von Willebrand disease patients; intravenous, 0.3 µg/kg): 9.43 L/h
O=C(CCCN1CC=C(n2c(=O)[nH]c3ccccc32)CC1)c1ccc(F)cc1  free Cmax (human): 16 nM
Cc1cc(C)c(CNC(=O)c2cc(Cl)c3c(c2C)O[C@@](C)([C@H]2CC[C@H](N(C)C)CC2)O3)c(=O)[nH]1  median time to response (relapsed/refractory PTCL patients; dose not given): 8.14 weeks
C[C@@H](c1ccc2nccn2c1)n1nnc2ncc(-c3cnn(C)c3)nc21  IC50 (T98G): 13.5 µM
CN(C)c1cc(CNCC(C)(C)C)c(O)c2c1C[C@H]1C[C@H]3[C@H](N(C)C)C(O)=C(C(N)=O)C(=O)[C@@]3(O)C(O)=C1C2=O  decrease in concentration (aqueous solution; concentration not given, 24 h, -32): ~50%
c1ccc2c(c1)Cc1ccccc1-2  Kd (amyloid beta fibrils; binding): ~1 nM
C/C=C1\NC(=O)[C@H]2CSSCC/C=C/[C@H](CC(=O)N[C@H](C(C)C)C(=O)N2)OC(=O)[C@H](C(C)C)NC1=O  IC50 (Plasmodium falciparum; parasite growth; Dd2 (chloroquine-resistant)): 0.13 ± 0.04 µM
CC(C)(Oc1ccc(CCNC(=O)c2ccc(Cl)cc2)cc1)C(=O)O  log Kow: 4.07
C[C@]1(c2nc3c(C(N)=O)cccc3[nH]2)CCCN1  unbound fraction (plasma): 0.48
Cc1[nH]c2ccccc2c1CCNCc1ccc(/C=C/C(=O)NO)cc1  Tmax (human; oral, dose not given): 1 to 1.5 h
Cc1c(Oc2ccc(F)cc2)c(OC(C)C)nn1-c1ccc(C2CC2)cn1  IC50 (DHODH (human); cellular activity): 1.2 µM
C[C@@H](c1ncncc1F)[C@](O)(Cn1cncn1)c1ccc(F)cc1F  inhibition (BCRP; in vitro; concentration not given): no inhibition
N[C@@H](CC(=O)N1CCn2c(nnc2C(F)(F)F)C1)Cc1cc(F)c(F)cc1F  free Cmax (human): 442 nM
CC(C)[C@@H](CS(=O)(=O)C(C)C)N1C(=O)[C@@](C)(CC(=O)O)C[C@H](c2cccc(Cl)c2)[C@H]1c1ccc(Cl)cc1  total intratumoral concentration (glioblastoma patients; 240 mg): > 25 nmol/L
CC(C)=CCc1cc2c(cc1O)O[C@H](c1ccc(O)cc1)CC2=O  Tmax (rat, plasma): 1 h
C[C@@H]1C[C@H]2[C@@H]3CCC4=CC(=O)C=C[C@]4(C)[C@@]3(F)[C@@H](O)C[C@]2(C)[C@@]1(O)C(=O)CO  log kW IAM (IAM chromatography): 1.71
CNC(=O)c1cc(Oc2ccc(NC(=O)Nc3ccc(Cl)c(C(F)(F)F)c3)cc2)ccn1  IC50 (T98G): 16.3 µM

A few entries again (series 1):
CO[C@H]1/C=C/O[C@@]2(C)Oc3c(C)c(O)c4c(O)c(c(/C=N/N5CCN(C)CC5)c(O)c4c3C2=O)NC(=O)/C(C)=C\C=C\[C@H](C)[C@H](O)[C@@H](C)[C@@H](O)[C@@H](C)[C@H](OC(C)=O)[C@@H]1C: inactive
CC1(C)S[C@@H]2[C@H](NC(=O)[C@H](N)c3ccc(O)cc3)C(=O)N2[C@H]1C(=O)O: inactive
CCC[C@@H]1C[C@@H](C(=O)N[C@@H]([C@H]2O[C@H](SC)[C@H](O)[C@@H](O)[C@H]2O)[C@@H](C)O)N(C)C1: inactive
CCCN[C@H]1CCc2nc(N)sc2C1.Cl: inactive
Cc1sc(N)c(C(=O)c2cccc(C(F)(F)F)c2)c1C: inactive
COc1c2occc2cc2ccc(=O)oc12: inactive
